{"data": "Experimental data of several laboratories", "note": "± marks the error that the study gave."}
{"SMILES": "CCN(CC)c1ccc2c(-c3ccccc3C(=O)OCCOCC[18F])c3ccc(=[N+](CC)CC)cc-3oc2c1", "assay": "PET imaging", "system": "rat, liver", "conditions": "dose not given, 55 min post injection", "scale": "reference: value at 5 min", "endpoint": "liver radioactivity", "value": "25%"}
{"SMILES": "C[C@@H]1CC[C@H]2[C@@H](C)CO[C@@H]3O[C@@]4(C)CC[C@@H]1[C@]32OO4", "assay": "LC-MS/MS", "system": "Sprague-Dawley rat, male, plasma", "conditions": "intravenous, 5 mg/kg", "endpoint": "Vd", "value": "5.38 ± 0.642 L/kg"}
{"SMILES": "CC(C)C[C@@H](NC(=O)[C@@H](CCCCN)NC(=O)CNC(=O)CNC(=O)[C@@H]1CSSC[C@H](N)C(=O)NCC(=O)N[C@@H](CCCNC(=N)N)C(=O)N[C@@H](CCCNC(=N)N)C(=O)N[C@@H](C)C(=O)NCC(=O)NCC(=O)N[C@@H](CO)C(=O)N1)C(=O)N[C@H](C)C(=O)N[C@H](CCCCN)C(=O)N[C@H](CC(C)C)C(=O)N[C@H](C)C(=O)N[C@H](CCCCN)C(=O)N[C@H](CCCCN)C(=O)N[C@H](CC(C)C)C(=O)N[C@H](C)C(=O)N[C@H](CCCCN)C(=O)N[C@H](CC(C)C)C(=O)N[C@H](C)C(=O)N[C@H](CCCCN)C(=O)O", "system": "cynomolgus monkey, plasma", "conditions": "intravenous, 3 mg/kg, infusion", "endpoint": "MRT", "value": "1.28 h"}
{"SMILES": "CC(C)[C@H](NC(=O)CNC(=O)[C@H](CCC(N)=O)NC(=O)[C@H](C)N)C(=O)O", "assay": "any adverse event", "system": "human", "conditions": "10 mg/kg, 3 days, thrice daily dosing", "endpoint": "subjects with adverse events", "value": "50%"}
{"SMILES": "CCCCCCCCCCCCCCCC(=O)N[C@@H](CCC(=O)NCCCC[C@H](NC(=O)[C@H](CC(=O)O)NC(=O)[C@H](CO)NC(=O)[C@@H](NC(=O)[C@H](Cc1ccccc1)NC(=O)[C@@H](NC(=O)CNC(=O)[C@H](CCC(=O)O)NC(=O)[C@H](CO)NC(=O)[C@@H](N)Cc1ccc(O)cc1)[C@@H](C)O)[C@@H](C)O)C(=O)N[C@@H](CO)C(=O)N[C@@H](CCCCN)C(=O)N[C@@H](Cc1ccc(O)cc1)C(=O)N[C@@H](CC(C)C)C(=O)N[C@@H](CC(=O)O)C(=O)N[C@@H](CO)C(=O)N[C@@H](CCC(N)=O)C(=O)N[C@@H](C)C(=O)N[C@@H](C)C(=O)N[C@@H](CCC(N)=O)C(=O)N[C@@H](CC(=O)O)C(=O)N[C@@H](Cc1ccccc1)C(=O)N[C@H](C(=O)N[C@@H](CCC(N)=O)C(=O)N[C@@H](Cc1c[nH]c2ccccc12)C(=O)N[C@@H](CC(C)C)C(=O)N[C@@H](CC(C)C)C(=O)N[C@@H](C)C(=O)NCC(=O)NCC(=O)N1CCC[C@H]1C(=O)N[C@@H](CO)C(=O)N[C@@H](CO)C(=O)NCC(=O)N[C@@H](C)C(=O)N1CCC[C@H]1C(=O)N1CCC[C@H]1C(=O)N1CCC[C@H]1C(=O)N[C@@H](CO)C(N)=O)C(C)C)C(=O)O", "system": "cynomolgus monkeys", "endpoint": "tolerability", "value": "not toxic"}
{"SMILES": "CC(=CCC(O)C(C)=Cc1csc(C)n1)CC=CC(C)C(O)C(C)C(=O)C(C)(C)C(O)CC(=O)O (centres unmarked)", "system": "human, plasma", "conditions": "intravenous infusion, 20.0 mg/m2 KOS-1584, 3 h infusion, cycle 1", "endpoint": "Tmax", "value": "3.05 ± 0.08 h"}
{"SMILES": "CC[C@H](C)C(=O)N1CCC(NC(=O)Nc2ccc(OC(F)(F)F)c(F)c2)CC1", "system": "healthy volunteers", "conditions": "oral, 16 mg single dose", "endpoint": "subjects with limb injury TEAE", "value": "0%"}
{"SMILES": "CN(C)C(CNC(=O)Nc1cc(C(F)(F)F)ccc1N1CCOCC1)c1ccncc1 (centres unmarked)", "system": "mouse, serum", "conditions": "intraperitoneal, 120 mg/kg single dose", "endpoint": "serum globulin", "value": "1.8 g/dL"}
